Measured values collected from several papers.
Numbered parts are unrelated; each lists some results of a single study. Positions count from the first letter of the parent shown.

Series 1 — technique: aptamer microarray, sandwich; form: DNA with 2'F-ANA; medium: in vitro; concentration: 200 nM; with: Cy3 exosite-II aptamer, 400 nM; reading: higher = stronger binding; oligonucleotide: GGTTGGTGTGGTTGG
Target: Prothrombin, mature alpha-thrombin (F2, Homo sapiens, UniProt P00734)
Setting: whole 15-mer aptamer, many near background
Modification | mean fluorescence intensity [a.u.]
2'F-ANA at 3 9 10 11 12 | 584
2'F-ANA at 1 2 3 4 5 6 7 8 9 11 12 13 15 | 73.4
2'F-ANA at 1 2 6 8 10 11 14 15 | 89.3
2'F-ANA at 1 2 3 5 6 7 8 10 11 14 | 49.3
2'F-ANA at 2 8 10 13 14 | 80.9
2'F-ANA at 2 3 5 11 13 14 15 | 72.3
2'F-ANA at 1 3 6 7 8 9 10 11 14 | 61.5
2'F-ANA at 1 3 4 5 6 9 13 14 15 | 51.5

Series 2 — technique: protein-binding microarray; form: double-stranded DNA, one strand shown; medium: in vitro; concentration: 2200 nM top; setting: 60-bp whole probe; with: salmon DNA 0.4 mg/ml; baseline: random background probes; reading: higher = stronger binding; shared flanks, not repeated: GCCTAGCAC … GTCTTGATTCGCTTGACGCTGCTG
Target: Interferon regulatory factor 7, full length, phosphomimetic (IRF7, Homo sapiens, UniProt Q92985, residues 1-503, S471D/S472D/S475D/S476D/S477D/S483D/S484D/S487D)
Residues (chain): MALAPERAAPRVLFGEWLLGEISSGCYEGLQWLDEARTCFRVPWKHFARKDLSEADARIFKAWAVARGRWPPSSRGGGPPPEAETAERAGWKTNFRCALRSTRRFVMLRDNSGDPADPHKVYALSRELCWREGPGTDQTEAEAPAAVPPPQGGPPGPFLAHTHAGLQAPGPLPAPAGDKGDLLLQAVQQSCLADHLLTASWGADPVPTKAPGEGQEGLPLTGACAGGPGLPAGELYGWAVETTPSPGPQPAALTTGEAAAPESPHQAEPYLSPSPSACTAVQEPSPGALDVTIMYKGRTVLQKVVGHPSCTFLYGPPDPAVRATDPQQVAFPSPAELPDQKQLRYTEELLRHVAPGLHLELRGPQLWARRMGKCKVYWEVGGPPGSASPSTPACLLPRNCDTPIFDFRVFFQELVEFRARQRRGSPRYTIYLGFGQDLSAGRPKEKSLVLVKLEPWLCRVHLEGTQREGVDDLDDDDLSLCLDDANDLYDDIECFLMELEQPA
Oligonucleotide | fitted relative affinity [z-score]
TTAGTTCTCAGTTTCGATTAGTGCTAG | 6.38
TTAGATTTCATACTGGATTAGTGCTAG | 0.282
TTAGGACTGCTTATCGTTTAGTGCTAG | 0.392
GACGGTTTCGACTATCTGGACGTGCTA | 3.33
TCATTATGCTCTTTCTAACTGTGCTAG | 1.88
TTAGGTTTCGACTTTCGATTAGTGCTA | 9.64
TTAGATAACGGGACTGGATTAGTGCTA | -0.609
TCATCTCCCATTATATTACTGTGCTAG | 2.13

Series 3 — target: BATF3, bZIP domain (human); technique: DHFR protein complementation; medium: yeast; baseline: wild-type JUN-FOS pair; reading: higher = stronger binding
Setting: single substitutions, most at no-binding floor
Parent: JUN, bZIP domain (human); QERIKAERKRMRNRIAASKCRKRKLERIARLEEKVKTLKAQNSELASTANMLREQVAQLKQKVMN; partner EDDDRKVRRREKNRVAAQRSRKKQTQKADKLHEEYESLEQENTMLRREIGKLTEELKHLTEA
Substitution | binding fitness [natural log]
T37E | 0.228
L52P | -0.885
E44F | 0.127
L45Y | 0.0915
R53H | 0.0433
L31G | -0.033
S47N | 0.17
L38V | 0.171

Single results of other studies
Parent: viral docking peptide; KKVKRRLFETREL; partner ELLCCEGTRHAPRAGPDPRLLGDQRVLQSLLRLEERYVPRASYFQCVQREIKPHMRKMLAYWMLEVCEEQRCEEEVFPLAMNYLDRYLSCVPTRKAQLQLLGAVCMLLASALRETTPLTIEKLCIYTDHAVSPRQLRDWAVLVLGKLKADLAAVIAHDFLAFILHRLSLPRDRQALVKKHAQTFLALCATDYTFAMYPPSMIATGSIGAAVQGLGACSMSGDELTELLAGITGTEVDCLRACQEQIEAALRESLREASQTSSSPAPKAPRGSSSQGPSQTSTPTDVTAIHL
Substitution | target | test | test system | conditions | scale | endpoint | value
R5K | CCND3, cyclin fold, Cln2 fusion (human) | yeast growth competition, sequencing | yeast | weak parent motif | baseline: not given, higher = stronger binding | normalised enrichment score | 0.534

Some of these lines once more (series 2):
Oligonucleotide | fitted relative affinity [z-score]
TCATTATGCTCTTTCTAACTGTGCTAG | 1.88
TTAGGTTTCGACTTTCGATTAGTGCTA | 9.64
TTAGATAACGGGACTGGATTAGTGCTA | -0.609
